Published values from different studies.
A part holds a random share of what one study measured. Substitutions count along the parent as printed.
Chain of UniProt Q00536 (whole entry, looked up): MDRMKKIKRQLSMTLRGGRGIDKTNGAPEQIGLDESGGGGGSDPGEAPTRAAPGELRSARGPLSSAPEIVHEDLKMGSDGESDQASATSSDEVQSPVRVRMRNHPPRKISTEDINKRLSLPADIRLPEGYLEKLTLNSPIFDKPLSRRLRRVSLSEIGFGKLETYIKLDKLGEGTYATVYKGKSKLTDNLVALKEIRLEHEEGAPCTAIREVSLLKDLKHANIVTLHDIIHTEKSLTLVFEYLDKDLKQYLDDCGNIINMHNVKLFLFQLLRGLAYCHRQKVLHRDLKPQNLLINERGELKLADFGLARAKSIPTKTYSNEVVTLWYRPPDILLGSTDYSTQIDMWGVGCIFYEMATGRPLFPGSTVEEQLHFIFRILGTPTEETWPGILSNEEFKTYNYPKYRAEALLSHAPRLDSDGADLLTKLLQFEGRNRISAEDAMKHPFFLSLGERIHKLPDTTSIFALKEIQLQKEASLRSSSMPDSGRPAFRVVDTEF
Chain of UniProt O15530 (whole entry, looked up): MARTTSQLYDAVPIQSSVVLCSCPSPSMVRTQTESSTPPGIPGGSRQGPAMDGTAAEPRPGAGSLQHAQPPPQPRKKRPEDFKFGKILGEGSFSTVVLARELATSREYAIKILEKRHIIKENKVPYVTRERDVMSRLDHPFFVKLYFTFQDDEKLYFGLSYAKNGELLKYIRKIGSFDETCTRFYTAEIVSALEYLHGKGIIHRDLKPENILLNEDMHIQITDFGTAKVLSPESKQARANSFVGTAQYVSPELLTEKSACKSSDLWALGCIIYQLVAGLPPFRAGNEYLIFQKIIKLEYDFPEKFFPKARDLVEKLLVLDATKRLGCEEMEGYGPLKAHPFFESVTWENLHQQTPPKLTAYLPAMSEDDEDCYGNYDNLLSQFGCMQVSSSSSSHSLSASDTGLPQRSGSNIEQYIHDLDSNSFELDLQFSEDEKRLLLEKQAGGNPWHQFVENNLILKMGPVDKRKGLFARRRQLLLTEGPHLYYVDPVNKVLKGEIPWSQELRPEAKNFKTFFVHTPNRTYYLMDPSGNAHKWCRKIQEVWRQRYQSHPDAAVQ
Chain of UniProt Q6ZWH5 (whole entry, looked up): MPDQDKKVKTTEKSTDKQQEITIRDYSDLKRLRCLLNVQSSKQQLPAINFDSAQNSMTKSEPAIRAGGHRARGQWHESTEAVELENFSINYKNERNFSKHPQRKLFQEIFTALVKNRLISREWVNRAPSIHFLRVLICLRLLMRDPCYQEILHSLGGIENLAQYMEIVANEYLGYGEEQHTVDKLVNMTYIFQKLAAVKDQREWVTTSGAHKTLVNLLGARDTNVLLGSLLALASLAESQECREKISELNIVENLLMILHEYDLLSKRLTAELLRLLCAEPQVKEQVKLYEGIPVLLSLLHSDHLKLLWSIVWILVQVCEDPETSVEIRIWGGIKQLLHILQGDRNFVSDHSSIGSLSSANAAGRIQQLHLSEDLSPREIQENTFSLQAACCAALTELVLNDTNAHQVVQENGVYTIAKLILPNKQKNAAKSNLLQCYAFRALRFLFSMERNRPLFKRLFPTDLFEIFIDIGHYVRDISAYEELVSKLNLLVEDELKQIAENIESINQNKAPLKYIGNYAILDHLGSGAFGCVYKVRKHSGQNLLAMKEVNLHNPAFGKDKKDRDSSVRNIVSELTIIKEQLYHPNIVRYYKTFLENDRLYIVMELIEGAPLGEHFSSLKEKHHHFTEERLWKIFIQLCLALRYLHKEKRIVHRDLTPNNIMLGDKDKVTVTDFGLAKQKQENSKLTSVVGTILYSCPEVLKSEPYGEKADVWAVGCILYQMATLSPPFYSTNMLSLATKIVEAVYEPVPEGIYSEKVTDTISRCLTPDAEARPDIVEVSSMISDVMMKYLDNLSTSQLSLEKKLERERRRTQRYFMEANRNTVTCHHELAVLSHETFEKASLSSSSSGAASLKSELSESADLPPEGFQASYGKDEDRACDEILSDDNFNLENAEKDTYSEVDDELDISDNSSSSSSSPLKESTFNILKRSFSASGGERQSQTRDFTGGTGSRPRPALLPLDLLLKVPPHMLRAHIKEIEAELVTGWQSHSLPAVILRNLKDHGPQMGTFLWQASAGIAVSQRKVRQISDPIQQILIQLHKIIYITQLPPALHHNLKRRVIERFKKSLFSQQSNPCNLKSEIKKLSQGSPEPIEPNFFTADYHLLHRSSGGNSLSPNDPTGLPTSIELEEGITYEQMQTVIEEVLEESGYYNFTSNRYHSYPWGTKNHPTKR
Chain of UniProt Q9BVS4 (whole entry, looked up): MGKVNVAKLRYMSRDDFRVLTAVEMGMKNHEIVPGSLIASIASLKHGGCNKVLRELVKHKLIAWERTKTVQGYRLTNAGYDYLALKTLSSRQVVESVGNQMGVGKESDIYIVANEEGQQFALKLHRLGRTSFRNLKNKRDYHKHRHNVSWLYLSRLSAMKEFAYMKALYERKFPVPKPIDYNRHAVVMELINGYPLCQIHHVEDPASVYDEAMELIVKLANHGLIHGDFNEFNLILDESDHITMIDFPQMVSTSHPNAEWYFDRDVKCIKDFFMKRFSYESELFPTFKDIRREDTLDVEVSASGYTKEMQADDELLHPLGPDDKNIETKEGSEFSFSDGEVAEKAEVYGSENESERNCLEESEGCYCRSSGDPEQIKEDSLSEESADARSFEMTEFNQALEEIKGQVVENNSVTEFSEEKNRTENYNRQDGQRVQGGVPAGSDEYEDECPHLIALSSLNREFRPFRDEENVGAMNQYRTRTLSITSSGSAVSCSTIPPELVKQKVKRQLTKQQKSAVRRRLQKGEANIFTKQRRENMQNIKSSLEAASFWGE
Chain of UniProt P33981 (whole entry, looked up): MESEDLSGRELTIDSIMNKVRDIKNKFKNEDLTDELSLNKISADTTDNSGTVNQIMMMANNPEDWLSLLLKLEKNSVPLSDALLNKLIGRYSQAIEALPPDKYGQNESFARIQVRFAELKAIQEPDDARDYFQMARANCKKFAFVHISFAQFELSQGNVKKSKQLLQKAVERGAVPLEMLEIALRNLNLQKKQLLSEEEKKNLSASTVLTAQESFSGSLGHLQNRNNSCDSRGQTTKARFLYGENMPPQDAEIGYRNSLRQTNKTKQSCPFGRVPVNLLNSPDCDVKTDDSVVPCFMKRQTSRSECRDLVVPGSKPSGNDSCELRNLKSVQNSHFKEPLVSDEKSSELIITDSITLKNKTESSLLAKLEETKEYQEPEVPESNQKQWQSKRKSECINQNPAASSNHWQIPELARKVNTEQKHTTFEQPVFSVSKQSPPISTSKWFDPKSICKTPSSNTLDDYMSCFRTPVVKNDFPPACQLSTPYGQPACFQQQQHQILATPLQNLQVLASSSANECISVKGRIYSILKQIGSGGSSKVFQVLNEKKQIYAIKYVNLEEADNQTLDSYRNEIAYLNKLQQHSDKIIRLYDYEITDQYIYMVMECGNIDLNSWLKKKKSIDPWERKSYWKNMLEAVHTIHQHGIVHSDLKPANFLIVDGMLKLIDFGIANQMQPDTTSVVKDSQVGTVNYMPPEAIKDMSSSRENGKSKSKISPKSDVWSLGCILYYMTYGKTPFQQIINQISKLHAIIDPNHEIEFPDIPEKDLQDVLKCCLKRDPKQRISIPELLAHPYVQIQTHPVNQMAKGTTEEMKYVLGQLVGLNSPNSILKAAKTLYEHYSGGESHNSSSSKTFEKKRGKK
Chain of UniProt O75914 (whole entry, looked up): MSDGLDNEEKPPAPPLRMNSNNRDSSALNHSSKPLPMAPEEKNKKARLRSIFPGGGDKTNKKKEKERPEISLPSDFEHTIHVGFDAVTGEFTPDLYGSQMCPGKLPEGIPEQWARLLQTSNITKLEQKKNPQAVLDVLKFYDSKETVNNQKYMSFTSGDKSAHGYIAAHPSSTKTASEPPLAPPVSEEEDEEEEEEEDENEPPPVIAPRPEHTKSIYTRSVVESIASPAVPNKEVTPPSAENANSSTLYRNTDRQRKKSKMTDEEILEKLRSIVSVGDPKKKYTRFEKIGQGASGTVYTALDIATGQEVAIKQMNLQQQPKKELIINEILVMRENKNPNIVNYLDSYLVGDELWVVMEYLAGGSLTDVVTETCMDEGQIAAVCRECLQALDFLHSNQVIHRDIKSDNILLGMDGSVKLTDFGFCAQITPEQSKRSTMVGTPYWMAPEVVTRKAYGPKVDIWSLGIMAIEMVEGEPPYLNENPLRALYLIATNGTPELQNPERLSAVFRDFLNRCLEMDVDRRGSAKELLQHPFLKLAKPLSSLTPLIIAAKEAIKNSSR

Study 1 — target: CCND1, cyclin fold, Cln2 fusion (human); technique: yeast growth competition, sequencing; sample: yeast; notes: weak parent motif; relative to: not given; reading: higher = stronger binding
Starting sequence: PKMYT1 docking peptide (human); SFEPRNLLSLFED; partner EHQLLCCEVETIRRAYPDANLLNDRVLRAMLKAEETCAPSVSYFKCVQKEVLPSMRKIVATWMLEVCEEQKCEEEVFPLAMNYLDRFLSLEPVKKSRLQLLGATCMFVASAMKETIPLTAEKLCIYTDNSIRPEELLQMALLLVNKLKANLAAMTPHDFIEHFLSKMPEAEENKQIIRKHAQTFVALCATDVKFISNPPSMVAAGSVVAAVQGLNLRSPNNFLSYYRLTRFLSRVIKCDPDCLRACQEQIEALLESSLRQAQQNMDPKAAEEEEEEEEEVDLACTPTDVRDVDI
For `N6V`, “normalised enrichment score” read 1.21.
Under “normalised enrichment score”, `D13T` is recorded as 0.693.
Under “normalised enrichment score”, `L8K` is recorded as 1.05.
For `L10G`, “normalised enrichment score” read 1.5.
`L7K` — result for “normalised enrichment score”: 1.38.
`S1Q` — result for “normalised enrichment score”: 0.289.
Under “normalised enrichment score”, `L10H` is recorded as 1.07.
Under “normalised enrichment score”, `F11V` is recorded as 0.76.

Study 2 — technique: RNA Bind-n-Seq; form: RNA; sample: in vitro; tested at: 1 µM; notes: whole 134-nt RNA, ends assumed; added: 150 mM KCl; relative to: input library; reading: higher = stronger binding
Target: Ras GTPase-activating protein-binding protein 1, RRM domain (G3BP1, Homo sapiens, UniProt Q13283)
Chain of UniProt Q13283 (whole entry, looked up): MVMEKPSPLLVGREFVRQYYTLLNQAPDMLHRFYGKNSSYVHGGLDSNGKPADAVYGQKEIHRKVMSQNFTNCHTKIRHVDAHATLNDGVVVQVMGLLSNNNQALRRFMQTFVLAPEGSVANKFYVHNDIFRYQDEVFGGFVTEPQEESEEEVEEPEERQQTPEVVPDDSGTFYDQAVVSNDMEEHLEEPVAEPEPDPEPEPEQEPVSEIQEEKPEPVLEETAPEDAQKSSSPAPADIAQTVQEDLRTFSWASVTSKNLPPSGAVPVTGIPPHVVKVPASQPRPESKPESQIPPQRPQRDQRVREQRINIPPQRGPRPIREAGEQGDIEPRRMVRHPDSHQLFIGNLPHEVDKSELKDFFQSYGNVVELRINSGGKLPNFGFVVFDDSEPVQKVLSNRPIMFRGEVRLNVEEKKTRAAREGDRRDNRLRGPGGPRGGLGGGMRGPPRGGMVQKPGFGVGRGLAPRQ
All sequences stand within: GGGAGUUCUACAGUCCGACGAUC … UGGAAUUCUCGGGUGUCAAGG
For `AAGUCCUGUGCUACACAUCGUAUGUACCGAAUCGGGUUUUUUUGGGUUUGGGAGGGAAAGUAUUAUGUUACGCCGUUCGGAUCUGCACUU`, the log2 enrichment was 0.247.
The log2 enrichment of `CAAGUCCUGUGCUACACAUCGUAUGUACCGAAUCGGCCCGGGCCCGGGCCCGGGGAAAGUAUUAUGUUACGCCGUUCGGAUCUGCACUUC` is reported as -0.926.
`CUGUGCUACACAUCGUAUGUACCGAAUCGGGGUUUUUUUGGUUUUUUUGGGUUUUUUUGGGAAAGUAUUAUGUUACGCCGUUCGGAUCUG` gave a log2 enrichment of -0.278.
The log2 enrichment of `UCCUGUGCUACACAUCGUAUGUACCGAAUCGGGUUUUUGGGAAAAAGGGUUUUUUUGGGAAAGUAUUAUGUUACGCCGUUCGGAUCUGCA` is reported as -0.0432.
For `CUCAAGUCCUGUGCUACACAUCGUAUGUACCGAAUCGGUUUUUGGUGGUUUGGAAAGUAUUAUGUUACGCCGUUCGGAUCUGCACUUCCA`, the log2 enrichment was -0.37.
For `UGGCCCUGGUGGCAUGCGGGGAGGAAGAGGUGGCCUCAUGGAUCGUGGUGGUCCAGGUGGAAUGUUCAGAGGUGGCCGUGGUGGAGACAG`, the log2 enrichment was 0.411.
`AAGUCCUGUGCUACACAUCGUAUGUACCGAAUCGGAAAAGGGGAAAAGGAAAAGGGGAAAGUAUUAUGUUACGCCGUUCGGAUCUGCACU` has a log2 enrichment of -0.0593.
With `UCCUGUGCUACACAUCGUAUGUACCGAAUCGGGCCCCCCGGGCCCCCCGGGCCCCCCGGAAAGUAUUAUGUUACGCCGUUCGGAUCUGCA` the log2 enrichment was -0.51.

Study 3 — effect on: cell-free assay; technique: competition with immobilised ligand; tested at: 0.1 µM
SMILES: Cn1nc(C(=O)NCc2ccc(C(=O)O)cc2)cc1-c1ccc2[nH]ccc2c1
The remaining binding was 90% (STK39 (Homo sapiens, UniProt Q9UEW8)).
The remaining binding was 76% (EGFR (Homo sapiens, UniProt P00533, G719C)).
The remaining binding was 100% (Tyrosine-protein kinase ABL1, phosphorylated (ABL1, Homo sapiens, UniProt P00519, Y253F)).
RIPK1 (Homo sapiens, UniProt Q13546) — remaining binding: 100%.
It gave 100% for remaining binding (EGFR (Homo sapiens, UniProt P00533, T790M)).
PAK3 (Homo sapiens, UniProt O75914) — remaining binding: 82%.
For CDKL2 (Homo sapiens, UniProt Q92772): remaining binding read 78%.
MAPK9 (Homo sapiens, UniProt P45984) — remaining binding: 60%.
STK11 (Homo sapiens, UniProt Q15831) — remaining binding: 100%.
It gave 100% for remaining binding (COQ8A (Homo sapiens, UniProt Q8NI60)).
For RIOK3 (Homo sapiens, UniProt O14730): remaining binding read 83%.
For CAMK2G (Homo sapiens, UniProt Q13555): remaining binding read 83%.
RIOK2 (Homo sapiens, UniProt Q9BVS4) — remaining binding: 100%.
For TTK (Homo sapiens, UniProt P33981): remaining binding read 88%.
For NEK10 (Homo sapiens, UniProt Q6ZWH5): remaining binding read 58%.
PDPK1 (Homo sapiens, UniProt O15530) — remaining binding: 100%.
TLK2 (Homo sapiens, UniProt Q86UE8) — remaining binding: 89%.
The remaining binding was 93% (CDK16 (Homo sapiens, UniProt Q00536)).
For FGR (Homo sapiens, UniProt P09769): remaining binding read 87%.
FLT3 (Homo sapiens, UniProt P36888) — remaining binding: 86%.
DAPK2 (Homo sapiens, UniProt Q9UIK4) — remaining binding: 96%.
It gave 66% for remaining binding (EGFR (Homo sapiens, UniProt P00533, G719S)).

Study 4 — effect on: enzyme activity; action: inhibitor; tested at: 0.5 µM; relative to: control
Target: Cyclin-dependent kinase 9, with cyclin K (CDK9, Homo sapiens, UniProt P50750)
Chain of UniProt P50750 (whole entry, looked up): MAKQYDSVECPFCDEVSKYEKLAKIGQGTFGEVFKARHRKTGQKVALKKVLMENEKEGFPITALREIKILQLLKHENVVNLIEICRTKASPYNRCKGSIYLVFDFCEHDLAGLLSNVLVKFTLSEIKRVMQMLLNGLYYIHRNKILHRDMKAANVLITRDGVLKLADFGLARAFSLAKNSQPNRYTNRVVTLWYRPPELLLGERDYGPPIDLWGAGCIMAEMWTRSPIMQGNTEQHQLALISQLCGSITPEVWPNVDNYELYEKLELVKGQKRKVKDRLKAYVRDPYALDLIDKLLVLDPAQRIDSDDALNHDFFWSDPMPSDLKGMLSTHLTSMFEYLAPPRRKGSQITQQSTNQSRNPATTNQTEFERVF
For O=S(=O)(c1cccc2cnccc12)N1CCCNCC1, the remaining activity was 86%.
Oc1ccc(-c2nc(-c3ccncc3)c(-c3ccc(F)cc3)[nH]2)cc1 has a remaining activity of 101%.
With COc1cc2ncnc(Nc3ccc(Oc4ccccc4)cc3)c2cc1OC the remaining activity was 96.7%.
O=c1c2ccccc2[nH]c(=S)n1CCN1CCC(=C(c2ccc(F)cc2)c2ccc(F)cc2)CC1 has a remaining activity of 104%.
CCOC(=O)c1c(C)[nH]c(/C=C2\C(=O)Nc3ccccc32)c1C gave a remaining activity of 97.5%.
For O=C1NC(=O)C(c2cn(CCCO)c3ncccc23)=C1c1cnccn1, the remaining activity was 89.5%.
Cn1c2ccccc2c2c3c(c4c5ccccc5n(CCC#N)c4c21)CNC3=O gave a remaining activity of 55.2%.
CNC(=O)c1cc(Oc2ccc(NC(=O)Nc3ccc(Cl)c(C(F)(F)F)c3)cc2)ccn1 has a remaining activity of 101%.
The remaining activity of COc1ccc(C(=O)Nc2sc3c(c2C(N)=O)CCCC3)cc1OC is reported as 85.7%.
With COc1ccc(OC)c2c(=S)c3ccccc3[nH]c12 the remaining activity was 92.2%.
The remaining activity of CN(C)c1ccc(C=C2C(=O)Nc3ccccc32)cc1 is reported as 100%.
For Nc1[nH]nc2nc3ccccc3nc12, the remaining activity was 88.3%.
Cc1cccc(-c2[nH]c(C(C)(C)C)nc2-c2ccc3c(c2)OCO3)n1 gave a remaining activity of 106%.
For COc1cc2nccc(Oc3ccc(NC(=S)NC(=O)c4ccccc4C)cc3)c2cc1OC, the remaining activity was 108%.
The remaining activity of OCC(O)CCON=C1C(c2c(O)[nH]c3ccccc23)=Nc2ccccc21 (centres unmarked) is reported as 33.2%.
O=C(CCCc1ccc(-c2ccccc2F)cc1)Nc1ccc(O)cc1 has a remaining activity of 96.7%.
The remaining activity of O=C(Nc1cccc(Nc2cc(Nc3cccc(C(F)(F)F)c3)ncn2)c1)C1CC1 is reported as 102%.
The remaining activity of Nc1ccc2ncnc(NCCc3ccc(Oc4ccccc4)cc3)c2c1 is reported as 104%.
